Published values of several laboratories.
Compare with care: the assays were run in different laboratories. “And” joins repeats or separate records; there may be more than shown.
Target: SRSF protein kinase 1 (SRPK1, Homo sapiens, UniProt Q96SB4)

SMILES	assay	test system	conditions	scale	endpoint	value
Nc1nc(Nc2ccccc2)sc1C(=O)c1ccccc1	enzyme activity, inhibitor	–	10 µM	–	remaining activity	26%
Cc1nc2c(F)cc(-c3nc(Nc4ccc(CNC(=O)CCCCCCC(=O)NO)cc4)ncc3F)cc2n1C(C)C	enzyme activity, inhibitor	–	1 µM	–	inhibition	45%
C=CC(=O)Nc1cccc(-c2cnc3[nH]cc(C(=O)NC(C)(C)C)c3n2)c1	kinase activity	–	0.1 µM	–	inhibition	-8% and -3%
CNC(=O)C[C@H](Cc1ccc(C#N)cc1)NC(=O)c1cc(-c2ccc(CN[C@H](C)c3ccc(C)cc3)o2)ccc1Cl	enzyme activity, inhibitor	–	1 µM	–	activity vs control	105%
NC(=O)[C@@H](O)C[C@H]1CCc2sc3ncnc(O[C@H]4CC[C@H](N5CCOCC5)CC4)c3c21	enzyme activity, inhibitor	–	10 µM	–	inhibition	4%
Cc1cccc(-c2ccc3nc(NC(=O)C4CCCO4)nn3c2)c1 (centres unmarked)	enzyme activity, Dundee kinase panel	–	10 µM	–	remaining activity	64%
O=C(Nc1ccccc1)Nc1cccc(O)c1	enzyme activity, inhibitor, FRET	–	10 µM	–	inhibition	15.5%
O=C=[N][Ru-4]123([n]4c5ccc(O)cc5c5c6c(c7cc(F)c[n+]1c7c54)C(=O)NC6=O)[S+]1CC[S+]2CC[S+]3CC1 (centres unmarked)	enzyme activity	–	100 nM, human enzyme, added: 10 µM ATP	reference: untreated	remaining activity	35%
Cc1cccc(O[C@H]2CCC[C@@H](C(C)CNCc3ccncc3)C2)c1 (relative stereo)	enzyme activity, inhibitor	–	10 µM	–	inhibition	8%
COc1cc(Nc2nccc(-c3cnn4nc(OC)ccc34)n2)cc(C(F)(F)F)c1	binding, competition with immobilised ligand	–	1 µM	–	remaining binding	79%
COCC12C(=O)NC3C4(C(OC)CC1O)C1CC5(O)C(OC)C(O)C(OC(C)=O)(C1C5OC(=O)c1ccccc1)C3(O)C(OC)C24 (centres unmarked)	kinase activity, inhibitor, ProQinase kinase profiling	–	25 µM	reference: control	remaining activity	110% and 116%
O=C(Cc1ccc(OCc2ccccc2)cc1)NC1(C(=O)O)CCN(C(=O)c2ccc(-c3cccc(Cl)c3)cc2)CC1	enzyme activity, inhibitor	–	10 µM	–	activity vs control	99%
c1ccc2c(Nc3cc(C4CCC4)[nH]n3)nc(Nc3ccc4nc[nH]c4c3)nc2c1	enzyme activity, inhibitor	–	0.25 µM	–	remaining activity	17%
CN(C(=O)N(C)c1ccc(C#N)cc1)c1ccccc1	enzyme activity, inhibitor, FRET	–	10 µM	–	inhibition	0.7%
Nc1ncc2c(n1)-c1c([nH]c3ccc(C4=CCOCC4)cc13)CCC2	binding, competition with immobilised ligand	–	1 µM	–	remaining binding	81%
O=C(Nc1ccccc1)Nc1ccccc1O	enzyme activity, inhibitor, FRET	–	10 µM	–	inhibition	13.4%
C=CC(=O)Nc1cc(-c2nn(C3CCN(CCNC(=O)[C@H](C)CCC45CC6CC(CC(C6)C4)C5)CC3)c3ncnc(N)c23)ccc1Oc1ccccc1	inhibitor, KiNativ profiling	biochemical	2 µM	–	inhibition	12%
CCn1cc(C(=O)O)c(=O)c2c(N)c(F)c(NC3CCCCC3)cc21	kinase activity	–	0.1 µM, added: ATP at Km	–	inhibition	3.9%
Cc1ccc(C)c(-c2ccc3nc(NC(=O)C4CCCCC4)nn3c2)c1	enzyme activity, Dundee kinase panel	–	10 µM	–	remaining activity	65%
Nc1ncc(-c2cc(-c3cnn(CC(F)(F)F)c3)ncc2F)nc1C(=O)NC1CNCC(F)C1 (centres unmarked)	enzyme activity	–	1 µM	reference: DMSO control	remaining activity	97%
COc1cccc(NC(=O)Nc2ccccc2O)c1	enzyme activity, inhibitor, FRET	–	10 µM	–	inhibition	11.6%
C=CC(=O)N1Cc2nc(-c3cc(-c4cc(Cl)cnc4Cl)c(F)cc3F)n(-c3ccncn3)c2C1	cell-free assay, inhibitor	–	1 µM	–	inhibition	8.3%
C=CC(=O)N1CCc2ccc(-n3c(=O)ccc4cnc5ccc(-c6cnn(C)c6)cc5c43)cc21	KINOMEscan	–	1 µM	reference: DMSO control	remaining binding	100%

For quick reference, copied from above:
SMILES	assay	test system	conditions	scale	endpoint	value
O=C(Cc1ccc(OCc2ccccc2)cc1)NC1(C(=O)O)CCN(C(=O)c2ccc(-c3cccc(Cl)c3)cc2)CC1	enzyme activity, inhibitor	–	10 µM	–	activity vs control	99%
C=CC(=O)Nc1cccc(-c2cnc3[nH]cc(C(=O)NC(C)(C)C)c3n2)c1	kinase activity	–	0.1 µM	–	inhibition	-8% and -3%
